Assay results from different studies.
“And” joins repeats or separate records; there may be more than shown. ± gives the spread as reported. No end group written: not given here.

Substance	assay	test system	conditions	scale	endpoint	result
COc1ccc2c(c1)c(CC(=O)O)c(C)n2C(=O)c1ccc(Cl)cc1	multiplex bead immunoassay, measured: IL-17	CD-1 mice, serum	ip, 20 mg/kg, three-injection regimen, with: LPS 3 mg/kg	–	cytokine level	0.8 ± 0.8 pg/mL
C[C@]12CCCN1CC1=NNC(=O)c3cc(F)cc4[nH]c2c1c34	PARylation in tumour	mouse, MDA-MB-436 xenograft, tumour	1.5 mg/kg, 0.5 h	–	inhibition	89%
FSRALRTK	ELISA or Luminex	peptide, mouse peritoneal macrophages, C57BL/6 mouse	optimal dose within 0.1 pM to 100 nM, 1 h pretreatment, 15 h stimulation, with: LPS 100 ng/mL + IFN-γ 20 ng/mL	baseline: LPS/IFN-γ stimulated control	inhibition of TNF-α release	0%
NNC1=NC(=O)C(=C2c3ccccc3-c3nc4cc(F)ccc4nc32)S1	–	mice with STZ-induced diabetes	oral, 25 mg/kg, 144 h, day 6	–	blood glucose	382 ± 23.3 mg/dL
Cc1c(C)c2c(c(C)c1OCc1ccccc1)CCC(C)(C(=O)NN=C1C(=O)Nc3ccc(Br)cc31)O2 (stereo not shown)	seizure protection	male CF-1 mice	intraperitoneal, 0.5 h, with: maximal electroshock	–	minimal effective dose	> 300 mg/kg
CCCN(O)N=Nc1ccc(S(=O)(=O)Nc2onc(C)c2C)cc1	paw oedema	rat, carrageenan oedema	oral, 100 mg/kg, 2 h after carrageenan	baseline: vehicle	inhibition	24%
Polymyxin B	–	human whole blood	250 ng/mL, 4 h, 37 °C, with: E. coli LPS 0.5 ng/mL	baseline: LPS without compound	IL-1β release	18.4 ± 11.2%
Cc1c2ccccc2cc2c1ccc1ccccc12	adrenal haemorrhage prevention	rat	oral, with: 7,12-DMBA 5 mg i.v.	–	minimal protective dose	0.5 mg
COc1ccc(/C=C(\C(=O)c2cc(C)[nH]c(=O)c2C(=O)N2CCCCC2)c2ccc(OC)c(C)c2)cc1C	cell proliferation, MTT	35404 melanoma brain metastasis, human patient-derived	72 h, tested up to 10 µM	–	IC50	> 10000 nM
insulin aspart	–	obese type 2 diabetes patients	subcutaneous, 0.2 U/kg, before standard meal	–	peak plasma glucose	181 mg/dL
Cc1c(C)c2c(c(C)c1O)CCC(C)(C(=O)NN=C1C(=O)Nc3ccccc31)O2 (stereo not shown)	seizure protection	male CF-1 mice	intraperitoneal, 0.5 h, with: pentylenetetrazole 60 mg/kg subcutaneous	–	minimal effective dose	300 mg/kg
insulin detemir	euglycaemic glucose clamp	type 2 diabetic patients	subcutaneous, 0.4 U/kg, 0 to 32 h, after 1 week bedtime dosing	–	glucose infusion rate AUC	1080 ± 785 mg/kg
Cc1ccc(N(O)N=Nc2ccc(S(=O)(=O)Nc3cc(C)on3)cc2)cc1	paw oedema	rat, carrageenan oedema	oral, 100 mg/kg, 4 h after carrageenan	baseline: vehicle	inhibition	88.6%
Cc1ccc(S(=O)(=O)NC(=O)NN2CC3CCCC3C2)cc1 (stereo not shown)	–	mice with STZ-induced diabetes	oral, 25 mg/kg, 288 h, day 12	–	blood glucose	132 ± 3.7 mg/dL
CCc1cc(-c2noc(-c3cc(OC)nc(C4CCCC4)c3)n2)cc(C)c1OC[C@@H](O)CO	lymphocyte count reduction	Wistar rats	oral, 0.1 to 10 mg/kg	–	minimal effective plasma concentration	60 ng/mL and ~60 ng/mL
GEBGABGNKGEQGPKGEBGP	–	peptide, DBA/1 mouse, collagen-induced arthritis	dose not given, treated after onset	baseline: ovalbumin	arthritis severity	decreased
C[C@]1(c2nc3c(C(N)=O)cccc3[nH]2)CCCN1	immunoassay, measured: poly(ADP-ribose)	human patients, PBMC	dose not given, 4 h post-dose, PAR reduction over 75%	–	patients with PAR reduction	68%
Cc1c(C)c2c(c(C)c1OCc1ccccc1)CCC(C)(C(=O)NN=C1C(=O)N(C)c3ccc(Cl)cc31)O2 (stereo not shown)	seizure protection	male CF-1 mice	intraperitoneal, 0.5 h, with: maximal electroshock	–	minimal effective dose	100 mg/kg
Cc1ccc2cc3ccc4ccccc4c3cc2c1	adrenal haemorrhage prevention	rat	oral, with: 7,12-DMBA 5 mg i.v.	–	minimal protective dose	0.5 mg
COc1ccc2nc([S@@+]([O-])Cc3ncc(C)c(OC)c3C)[nH]c2c1	–	human poor metabolizer	40 mg/day, day 6, 5 days dosing	–	intragastric pH	3 ± 2.82
Cc1c(C)c2c(c(C)c1O)CCC(C)(C(=O)NN=C1C(=O)Nc3cc(Cl)ccc31)O2 (stereo not shown)	seizure protection	male CF-1 mice	intraperitoneal, 0.5 h, with: pentylenetetrazole 60 mg/kg subcutaneous	–	minimal effective dose	30 mg/kg
SIYNFEKL	flow cytometry, measured: CD44hi CD8+ T cells	peptide, OT-I CD8+ T cells, mouse	dose not given, primed 5 days, TGF-β1 from day 2 onward, with: 20 ng/mL TGF-β1	–	single cytokine producers	22%
CS/C(S)=N/CCCC[S+](C)[O-] (racemic)	RT-PCR, measured: Nqo1	rat, colon	oral gavage, 200 mg/kg, 96 h, dosed for four days	baseline: vehicle	mRNA fold change	2.23
CCC1SC(NN=C2c3ccccc3-c3nc4cc(F)ccc4nc32)=NC1=O (stereo not shown)	–	mice with STZ-induced diabetes	oral, 25 mg/kg, 216 h, day 9	–	blood glucose	218 ± 6.3 mg/dL
Cc1cc(NS(=O)(=O)c2ccc(N=NN(C)O)cc2)no1	paw oedema	rat, carrageenan oedema	oral, 100 mg/kg, 4 h after carrageenan	baseline: vehicle	inhibition	80.3%

Substance	assay	test system	conditions	scale	endpoint	result
CCOC(=O)c1sc(N=C2c3ccccc3-c3nc4cc(F)ccc4nc32)nc1C	–	mice with STZ-induced diabetes	oral, 25 mg/kg, 216 h, day 9	–	blood glucose	220 ± 13.9 mg/dL
AGEDPHGYALPGQAA	ELISA or Luminex	peptide, mouse peritoneal macrophages, C57BL/6 mouse	optimal dose within 0.1 pM to 100 nM, 1 h pretreatment, 15 h stimulation, with: LPS 100 ng/mL + IFN-γ 20 ng/mL	baseline: LPS/IFN-γ stimulated control	inhibition of TNF-α release	0%
CC(=O)c1sc(N=C2c3ccccc3-c3nc4cc(F)ccc4nc32)nc1C	–	mice with STZ-induced diabetes	oral, 25 mg/kg, 144 h, day 6	–	blood glucose	567 ± 15.4 mg/dL
TLQPPASSRRRHFAHALPPAR	–	peptide, rat stomach fundus strips	3 µM	baseline: TLQP-21	contractile activity	91 ± 5%
CC(C)C[C@H](NC(=O)[C@H](CO)NC(=O)[C@H](CCCNC(=N)N)NC(=O)[C@H](CC(=O)O)NC(=O)[C@H](CCC(=O)O)NC(=O)[C@H](C)NC(=O)[C@@H]1CCCN1C(=O)[C@H](C)NC(=O)[C@H](CCC(=O)O)NC(=O)[C@@H]1CCCN1C(=O)[C@@H]1CCCN1)C(N)=O	HPLC-EC	rat F344, unilateral 6-OHDA lesion, ipsilateral striatum	intranasal, 300 µg daily, 5 weeks post lesion	–	HVA level	21 ± 20 ng/g
insulin human	–	STZ-diabetic Sprague-Dawley rat	intravenous infusion, 20 + 10 pmol/kg/min, glucose tolerance test	–	maximum plasma glucose	15.1 ± 0.7 mM
O=S(=O)(Nc1nccs1)c1ccc(N=NN(O)c2ccccc2)cc1	paw oedema	rat, carrageenan oedema	oral, 100 mg/kg, 4 h after carrageenan	baseline: vehicle	inhibition	79.7%
CC(C)NC(=O)[C@H]1CCC[C@H]1Nc1nc(Nc2ccc(C(=O)N(C)C3CCN(C)CC3)cc2)ncc1C(F)(F)F	immunohistochemistry, measured: phospho-histone H3	advanced solid tumour patients, skin biopsy epidermis	day 16 of cycle 1, dosing	–	effective dose	≥ 58 mg
Cc1c(C)c2c(c(C)c1OCc1ccccc1)CCC(C)(C(=O)NN=C1C(=O)N(C)c3ccccc31)O2 (stereo not shown)	seizure protection	male CF-1 mice	intraperitoneal, 4 h, with: maximal electroshock	–	minimal effective dose	100 mg/kg
CC(=O)O[C@H]1C(=O)[C@@]2(C)[C@H]([C@H](OC(=O)c3ccccc3)[C@]3(O)C[C@H](OC(=O)[C@H](O)[C@@H](NC(=O)c4ccccc4)c4ccccc4)C(C)=C1C3(C)C)[C@]1(OC(C)=O)CO[C@@H]1C[C@@H]2O	–	A549 xenograft, Mus musculus	intravenous, 10 mg/kg every 4 days	baseline: vehicle	tumour growth inhibition	48%
Cc1cc2ccccc2c2cc3ccccc3cc12	adrenal haemorrhage prevention	rat	oral, with: 7,12-DMBA 5 mg i.v.	–	minimal protective dose	0.5 mg
NCCCC[C@@H]1NC(=O)[C@@H](Cc2c[nH]c3ccccc23)NC(=O)[C@H](c2ccccc2)NC(=O)[C@@H]2C[C@@H](OC(=O)NCCN)CN2C(=O)[C@H](Cc2ccccc2)NC(=O)[C@H](Cc2ccc(OCc3ccccc3)cc2)NC1=O	GHRH-stimulated GH secretion	healthy human volunteers	subcutaneous, 100 µg, with: GHRH 1 µg/kg	baseline: pre-dose baseline	GH AUC(0-2h) change	-46.2%
Cc1c(C)c2c(c(C)c1OCc1ccccc1)CCC(C)(C(=O)NN=C1C(=O)Nc3ccc(Cl)cc31)O2 (stereo not shown)	seizure protection	male CF-1 mice	intraperitoneal, 4 h, with: maximal electroshock	–	minimal effective dose	100 mg/kg
CCCCc1ncc(CO)n1Cc1ccc(-c2ccccc2-c2nn[nH]n2)cc1	–	mouse DSS colitis	transanal, 100 mg/kg/day, day 1	baseline: baseline	body weight change	-2.02 ± 4.34%
Cc1cc(C(=O)/C(=C\c2ccc(C)c(Cl)c2)c2ccc(C)c(Cl)c2)c(C(=O)N2CCCCC2)c(=O)[nH]1	cell proliferation, MTT	35404 melanoma brain metastasis, human patient-derived	72 h, tested up to 10 µM	–	IC50	400 to 4300 nM
C[n+]1cccc2c(N)cccc21	–	mouse, diet-induced obese (high-fat diet)	subcutaneous, 10 mg/kg/day once daily, at termination	–	body weight gain	5.2 g
CC[C@H](C)[C@@H]1NC(=O)[C@H](CCCNC(=N)N)NC(=O)[C@H](CC(=O)O)NC(=O)[C@H](CC(C)C)NC(=O)[C@H](CCCCN)NC(=O)[C@H](CC(C)C)NC(=O)CNC(=O)[C@H](Cc2ccccc2)NC(=O)[C@@H](NC(=O)CNC(=O)[C@H](CCCCN)NC(=O)[C@H](CO)NC(=O)[C@H](CC(C)C)NC(=O)CNC(=O)[C@H](CCCCN)NC(=O)[C@H](CCCCN)NC(=O)[C@H](CC(N)=O)NC(=O)[C@H](C)NC(=O)CNC(=O)[C@H](CCCCN)NC(=O)[C@H](Cc2ccc(O)cc2)NC(=O)[C@H](CCCCN)NC(=O)[C@H](CCCNC(=N)N)NC(=O)[C@H](C)NC(=O)[C@H](CC(N)=O)NC(=O)[C@@H]2CCCN2C(=O)[C@H](Cc2c[nH]cn2)NC(=O)[C@H](CCC(=O)O)NC(=O)[C@H](CCC(N)=O)NC(=O)CNC(=O)[C@@H]2CCCN2)CSSC[C@@H](C(=O)O)NC(=O)CNC(=O)[C@H](CC(C)C)NC(=O)CNC(=O)[C@H](CO)NC(=O)[C@H](CCSC)NC(=O)[C@H](CO)NC(=O)CNC1=O	annualized growth velocity change	human patients with achondroplasia	day 183, Emax model vs mean Cmax, Hill 1	baseline: baseline	Emax	2.8 cm/year
CC(C)[C@H](NC(=O)C(C)(F)F)[C@H](Oc1ccc2c(cnn2-c2ccc(=O)n(C)c2)c1)c1ccccc1	TNF-alpha release	human, whole blood ex vivo	total concentration, PK/PD model, with: lipopolysaccharide	–	IC50	765 nM
Cn1cnc2c(F)c(Nc3ccc(Br)cc3Cl)c(C(=O)NOCCO)cc21	immunohistochemistry	cancer patients	dose not given, threshold 30%, alone or with cyclosporin A	–	patients with p-ERK inhibition	46.6%
Cc1cc(C)c(/C=C2\C(=O)Nc3ccccc32)[nH]1	MRI	human	dose not given, 2.7 months	–	tumour volume	75.1 cm³
Cc1c(C)c2c(c(C)c1O)CCC(C)(C(=O)NN=C1C(=O)N(C)c3ccccc31)O2 (stereo not shown)	seizure protection	male CF-1 mice	intraperitoneal, 0.5 h, with: maximal electroshock	–	minimal effective dose	30 mg/kg
CCOC(=O)C=C1SC(NN=C2c3ccccc3-c3nc4cc(F)ccc4nc32)=NC1=O	–	mice with STZ-induced diabetes	oral, 25 mg/kg, 216 h, day 9	–	blood glucose	294 ± 60.9 mg/dL
COc1c(C)c(C)c2c(c1C)CCC(C)(C(=O)NN=C1C(=O)Nc3cc(Cl)ccc31)O2 (stereo not shown)	seizure protection	male CF-1 mice	intraperitoneal, 0.5 h, with: maximal electroshock	–	minimal effective dose	100 mg/kg
Cy5-CVWSLQNTLFM (Cy5-labelled; sequence looked up)	GUV inward budding	peptide, POPC/cholesterol GUVs	30 µM, 30 min	–	GUVs with ILVs	16.6%

Some of these lines once more:
Substance	assay	test system	conditions	scale	endpoint	result
C[C@]1(c2nc3c(C(N)=O)cccc3[nH]2)CCCN1	immunoassay, measured: poly(ADP-ribose)	human patients, PBMC	dose not given, 4 h post-dose, PAR reduction over 75%	–	patients with PAR reduction	68%
Cc1c(C)c2c(c(C)c1OCc1ccccc1)CCC(C)(C(=O)NN=C1C(=O)N(C)c3ccc(Cl)cc31)O2 (stereo not shown)	seizure protection	male CF-1 mice	intraperitoneal, 0.5 h, with: maximal electroshock	–	minimal effective dose	100 mg/kg
Cc1ccc2cc3ccc4ccccc4c3cc2c1	adrenal haemorrhage prevention	rat	oral, with: 7,12-DMBA 5 mg i.v.	–	minimal protective dose	0.5 mg
COc1ccc2nc([S@@+]([O-])Cc3ncc(C)c(OC)c3C)[nH]c2c1	–	human poor metabolizer	40 mg/day, day 6, 5 days dosing	–	intragastric pH	3 ± 2.82
Cc1c(C)c2c(c(C)c1O)CCC(C)(C(=O)NN=C1C(=O)Nc3cc(Cl)ccc31)O2 (stereo not shown)	seizure protection	male CF-1 mice	intraperitoneal, 0.5 h, with: pentylenetetrazole 60 mg/kg subcutaneous	–	minimal effective dose	30 mg/kg
SIYNFEKL	flow cytometry, measured: CD44hi CD8+ T cells	peptide, OT-I CD8+ T cells, mouse	dose not given, primed 5 days, TGF-β1 from day 2 onward, with: 20 ng/mL TGF-β1	–	single cytokine producers	22%
